Experimental data pooled from the literature.
Each line is one published result; not all experiments were run side by side. “And” joins repeats or separate records; there may be more than shown. Numbers after ± are the reported error.

`O=C(NCC1OC2CCC=CCCC2O1)c1ccc(F)nc1` (stereo not drawn) — result for “observed rate constant kobs”: 494 ± 19.4 s⁻¹ (IEDDA cycloaddition, substrate, stopped-flow spectrophotometry; water/methanol 45:55; 1.5 mM, 298 K, with: 3,6-di(2-pyridyl)-tetrazine 0.05 mM).
The colony count of `COc1ccccc1-c1ccncc1C(=O)Nc1nnc(OCc2ccc(Cl)cc2)s1` is reported as 35 and 61 and 65 (Brca1 Δ11/Δ11 Polq-/- MEFs, mouse; 5 µM).
`CC1=CC(=O)c2ccccc2C1=O` gave a dead cells of 65.6% (pancreatic islet cells, mouse; 7 µM, 24 h).
The radical scavenging of `CCOC(=O)NCc1ccc(O[C@@H]2O[C@@H](C)[C@H](O)[C@@H](O)[C@H]2O)cc1` is reported as 30.6 ± 0.91% (ABTS radical; 300 µg/mL).
`CN(C)C(=O)c1ccnc(N2Cc3cn(Cc4ccc(F)cc4F)nc3C2)n1`: “Cohen's d effect size” -0.036 (immunostaining intensity, item: non-phosphorylated neurofilament SMI32; mouse cuprizone diet, corpus callosum; dose not given, unit not given; reference: cuprizone plus vehicle).
Under “lipid amide levels”, `O=C(CCCCCCc1ccccc1)c1ncc(-c2ccc(CBr)cn2)o1` is recorded as “increased” (item: AEA, OEA, PEA; mouse, brain and liver; i.p., 30 mg/kg, 1 and 3 h).
`Cc1cccc(NC(=O)CCN2CCN(C/C=C/c3ccccc3)CC2)c1` — result for “third-quartile larval motion”: 1.5 ± 0.4 pixels/frame (locomotor activity in dark; Danio rerio larvae, 7 dpf, well of 10 larvae; 10 µM, minute 3, dark).
`NNC(=O)Cc1ccccc1` gave a normalised absorbance of 0.692 (hydrazine ligation kinetics, absorbance; concentration not given, 35 s, with: 2-formylphenylboronic acid).
`COc1ccc(C(=O)CCc2cc(C(CCc3ccc(O)cc3OC)c3ccc(O)cc3)c(O)cc2OC)cc1` (racemic) has an amount of 215 ± 72 pg/mL blood (item: 12-HEPE; human whole blood; 10 µM, with: A23187).
`CC(=O)[O-].O.O.O.O.[Mn+2].[O-]c1ccc(Br)cc1C=NCCN1CCOCC1` has an inhibition of 16.6% (nitric oxide scavenging; 80 µM).
`C[C@@H]1O[C@@H](Oc2ccc(CC(N)=O)cc2)[C@H](O)[C@H](O)[C@H]1O` gave a radical scavenging of 21.1 ± 1.12% (ABTS radical; 300 µg/mL).
For `COc1ccccc1C1CCN(CCC(=O)Nc2ccc(C)c(C)c2)CC1`, “third-quartile larval motion” read 2.3 ± 0.8 pixels/frame (locomotor activity in dark; Danio rerio larvae, 7 dpf, well of 10 larvae; 10 µM, minute 7, dark).
With `COc1ccc(NC(=O)c2ccc3[nH]c(-c4ccc(N(C)C)cc4)nc3c2)cn1` the tumour volume was 159 mm3 and 293 mm3 and 278 mm3 and 155 mm3 (Lewis lung carcinoma, mice, syngeneic graft, subcutaneous; intraperitoneal, 50 mg/kg daily, day 7).
`CN1CCC[C@]1(C)/C=C/S(=O)(=O)NC(=O)Nc1c2c(cc3c1CCC3)CCC2` gave an IL-18 inhibition of 133% (human, whole blood ex vivo; 100 mg single dose, 24 h, single ascending dose, with: LPS and ATP).
`Cc1ncsc1-c1ccc(C(C)NC(=O)C2CC(O)CN2C(=O)C(NC(=O)CCCCCCCCCCN2CCCC(Nc3ncc(Cl)c(Nc4ccccc4S(=O)(=O)C(C)C)n3)C2)C(C)(C)C)cc1` (stereo not drawn): “log2 fold change” -1.91 (22Rv1; RNA-seq, item: NUP50-DT; concentration not given; reference: DMSO).
`O=C(O)c1c(O)cc(O[C@@H]2O[C@H](CO)[C@@H](O)[C@H](O)[C@H]2O)cc1/C=C/c1ccccc1` — result for “static lung compliance”: “decreased” (FlexiVent; FVB/N mouse, PPE-induced emphysema; oral gavage, 40 mg/kg, 5 weeks; reference: vehicle).
For `COC1CN([C@H]2CC[C@H]([C@@]3(C)Oc4c(Cl)cc(C(=O)NCc5c(SC)cc(C)[nH]c5=O)c(C)c4O3)CC2)C1`, “log2 fold change” read 1.3 (RNA-seq, item: GPCPD1; human, whole blood; dose not given, 24 h; reference: pretreatment baseline).
`COc1cccc(OCC(O)CN2CCN(c3ccccc3OC)CC2)c1` (stereo not drawn): “third-quartile larval motion” 10 ± 2 pixels/frame (locomotor activity in dark; Danio rerio larvae, 7 dpf, well of 10 larvae; 10 µM, minute 5, dark).
`O=C(O)c1cccc(CN2Cc3cccc(n3)CN(Cc3cccc(C(=O)O)n3)Cc3cccc(n3)C2)n1` — result for “transmetallation rate constant”: 0.0001 s⁻¹ (HPLC; water; 25 °C, Mn complex dissociation, with: 25 equiv Zn2+).
The IC50 of `Oc1cc2c(cc1O)C(c1ccccc1)NCC2` (stereo not drawn) is reported as 28.1 µM (DPPH scavenging, absorbance; 30 min, dark).
`CC(CCC(=O)NCc1ccc(C(=O)NO)cc1)C1CCC2C3C(O)CC4CC(O)CCC4(C)C3CCC12C` (stereo not drawn) has a relative abundance of 20.9% (item: Glyco-conj; PCK rat (Pkhd1 mutant), liver; oral gavage, dose not given, 5 months; reference: total bile acids).
For `COc1cc(O)ccc1CCC(c1ccc(O)cc1)c1cc2c(c(C)c1O)OC(c1ccc(O)cc1)CC2` (mixture of isomers), the amount was 64 ± 10 pg/mL blood (item: 5,15-diHETE; human whole blood; 0.3 µM, with: Escherichia coli).
`N[C@@H](CNC(=O)N[C@@H](CS)C(=O)NCC(=O)O)C(=O)O`: Iba-1 immunoreactivity “decreased” (mouse C57BL/6, brain; intranasal, dose not given; reference: saline i.c.v.).
`CCOC(=O)C1CCN(CCC(=O)Nc2ccccc2F)CC1`: “third-quartile larval motion” 0 pixels/frame (locomotor activity in dark; Danio rerio larvae, 7 dpf, well of 10 larvae; 10 µM, minute 7, dark).
`Cc1ccc(S(=O)(=O)NN)cc1` gave a normalised absorbance of 0.886 (hydrazine ligation kinetics, absorbance; concentration not given, 45 s, with: 2-formylphenylboronic acid).
`Cc1cc(NC(=O)CCN2CCCCC2)ccc1Br`: “third-quartile larval motion” 2.3 ± 0.6 pixels/frame (locomotor activity in dark; Danio rerio larvae, 7 dpf, well of 10 larvae; 10 µM, minute 3, dark).
`CCCCCCCCCCCCCCCC(=O)OCC(CSC[C@H](N)C(=O)N[C@@H](CO)C(=O)N[C@@H](CCCCN)C(=O)N[C@@H](CCCCN)C(=O)N[C@@H](CCCCN)C(=O)N[C@@H](CCCCN)C(=O)NCCCCCC(=O)N[C@@H](CCCCN)C(=O)N[C@@H](CC(C)C)C(=O)N[C@H](C(=O)N[C@@H](Cc1ccccc1)C(=O)N[C@@H](Cc1ccccc1)C(=O)N[C@@H](Cc1ccc2ccccc2c1)C(=O)O)C(C)C)OC(=O)CCCCCCCCCCCCCCC` (stereo partly drawn): “Aβ plaque level” 0.465 and 0.537 and 0.486 and 0.69 and 0.53 and 0.735 and 0.614 (Thioflavin S staining; APP/PS1 transgenic mouse, cortex; local cortical injection, dose not given, unit not given; reference: injected over adjacent side).
`CCC(=O)N[C@@H](C)C(=O)OCC(=O)N[C@@H](C)C(=O)O` — result for “chain scission rate constant”: 0.0078 h⁻¹ (water; pH 7, 25 °C).
With `CCOC(=O)NN` the normalised absorbance was 0.828 (hydrazine ligation kinetics, absorbance; concentration not given, 40 s, with: 2-formylphenylboronic acid).
`CC[C@H](C)[C@@H](C(=O)N[C@@H](CC(C)C)C(=O)N[C@@H](CO)C(=O)N[C@@H](CO)C(=O)N[C@H](C(=O)N[C@@H](CCC(=O)O)C(=O)N[C@H](C(=O)NCC(=O)N[C@@H](CO)C(=O)N[C@@H](CC(N)=O)C(=O)N[C@H](C(=O)N1C[C@H](O)C[C@H]1C(N)=O)[C@@H](C)O)C(C)C)[C@@H](C)O)N(C)C(=O)[C@H](C)NC(=O)CN(C)C(=O)[C@H](Cc1ccccc1)NC(=O)[C@H](CO)NC(=O)[C@H](CO)NC(=O)[C@H](CCCNC(=N)N)NC(=O)[C@H](CCC(N)=O)NC(=O)[C@H](CC(C)C)NC(=O)[C@H](Cc1ccccc1)NC(=O)[C@H](CCCC(=O)O)NC(=O)[C@H](C)NC(=O)[C@H](CC(C)C)NC(=O)[C@H](CCCNC(=N)N)NC(=O)[C@H](CCC(=O)O)NC(=O)[C@@H](NC(=O)[C@H](C)NC(=O)[C@@H]1CCCCNC(=O)C[C@H](NC(=O)[C@H](CCCNC(=N)N)NC(=O)CC[C@H](NC(=O)CCCCCCCCCCCCCCCCCCC(=O)O)C(=O)O)C(=O)NCC(=O)N[C@@H]([C@@H](C)O)C(=O)N[C@@H](C)C(=O)N[C@@H]([C@@H](C)O)C(=O)N1)[C@@H](C)O` — result for “body weight change”: 8.7% (diet-induced obese rats; subcutaneous, 3 nmol/kg every other day, day 20; reference: day 0).
For `Cc1cc(C)cc(NC(=O)CCN2CCCCCC2)c1`, “third-quartile larval motion” read 8.5 ± 2.3 pixels/frame (locomotor activity in dark; Danio rerio larvae, 7 dpf, well of 10 larvae; 10 µM, minute 3, dark).
For `COc1cc(/C=N/N2C(=O)c3ccccc3NC2c2cc(OC)c(O)c([N+](=O)[O-])c2)cc([N+](=O)[O-])c1O` (stereo not drawn), the IC50 was 234 µM (photosynthetic electron transport; Spinacia oleracea chloroplasts).
`CC[C@H](C)[C@@H](C(=O)N[C@@H](CC(C)C)C(=O)N[C@@H](CO)C(=O)N[C@@H](CO)C(=O)N[C@H](C(=O)N[C@@H](CCC(=O)O)C(=O)N[C@H](C(=O)NCC(=O)N[C@@H](CO)C(=O)N[C@@H](CO)C(=O)N[C@H](C(=O)N1C[C@H](O)C[C@H]1C(N)=O)[C@@H](C)O)C(C)C)[C@@H](C)O)N(C)C(=O)[C@H](C)NC(=O)CN(C)C(=O)[C@H](Cc1ccccc1)NC(=O)[C@H](CO)NC(=O)[C@H](CO)NC(=O)[C@H](CCCNC(=N)N)NC(=O)[C@@H](NC(=O)[C@H](CC(C)C)NC(=O)[C@H](Cc1ccccc1)NC(=O)[C@H](Cc1c[nH]cn1)NC(=O)[C@H](C)NC(=O)[C@H](CC(C)C)NC(=O)[C@H](CCCNC(=N)N)NC(=O)[C@H](CCC(=O)O)NC(=O)[C@@H](NC(=O)[C@H](C)NC(=O)[C@@H]1CSSC[C@H](NC(=O)[C@H](CCCNC(=N)N)NC(=O)CC[C@H](NC(=O)CCCCCCCCCCCCCCCCCCC(=O)O)C(=O)O)C(=O)NCC(=O)N[C@@H]([C@@H](C)O)C(=O)N[C@@H](C)C(=O)N[C@@H]([C@@H](C)O)C(=O)N1)[C@@H](C)O)[C@@H](C)O`: “body weight loss” 7 ± 0.5% (male Sprague-Dawley rats; subcutaneous, 30 nmol/kg single dose, 96 h).

Some of these lines once more:
`Cc1cc(NC(=O)CCN2CCCCC2)ccc1Br`: “third-quartile larval motion” 2.3 ± 0.6 pixels/frame (locomotor activity in dark; Danio rerio larvae, 7 dpf, well of 10 larvae; 10 µM, minute 3, dark).
`CCCCCCCCCCCCCCCC(=O)OCC(CSC[C@H](N)C(=O)N[C@@H](CO)C(=O)N[C@@H](CCCCN)C(=O)N[C@@H](CCCCN)C(=O)N[C@@H](CCCCN)C(=O)N[C@@H](CCCCN)C(=O)NCCCCCC(=O)N[C@@H](CCCCN)C(=O)N[C@@H](CC(C)C)C(=O)N[C@H](C(=O)N[C@@H](Cc1ccccc1)C(=O)N[C@@H](Cc1ccccc1)C(=O)N[C@@H](Cc1ccc2ccccc2c1)C(=O)O)C(C)C)OC(=O)CCCCCCCCCCCCCCC` (stereo partly drawn): “Aβ plaque level” 0.465 and 0.537 and 0.486 and 0.69 and 0.53 and 0.735 and 0.614 (Thioflavin S staining; APP/PS1 transgenic mouse, cortex; local cortical injection, dose not given, unit not given; reference: injected over adjacent side).
`CCC(=O)N[C@@H](C)C(=O)OCC(=O)N[C@@H](C)C(=O)O` — result for “chain scission rate constant”: 0.0078 h⁻¹ (water; pH 7, 25 °C).
With `CCOC(=O)NN` the normalised absorbance was 0.828 (hydrazine ligation kinetics, absorbance; concentration not given, 40 s, with: 2-formylphenylboronic acid).
`CC[C@H](C)[C@@H](C(=O)N[C@@H](CC(C)C)C(=O)N[C@@H](CO)C(=O)N[C@@H](CO)C(=O)N[C@H](C(=O)N[C@@H](CCC(=O)O)C(=O)N[C@H](C(=O)NCC(=O)N[C@@H](CO)C(=O)N[C@@H](CC(N)=O)C(=O)N[C@H](C(=O)N1C[C@H](O)C[C@H]1C(N)=O)[C@@H](C)O)C(C)C)[C@@H](C)O)N(C)C(=O)[C@H](C)NC(=O)CN(C)C(=O)[C@H](Cc1ccccc1)NC(=O)[C@H](CO)NC(=O)[C@H](CO)NC(=O)[C@H](CCCNC(=N)N)NC(=O)[C@H](CCC(N)=O)NC(=O)[C@H](CC(C)C)NC(=O)[C@H](Cc1ccccc1)NC(=O)[C@H](CCCC(=O)O)NC(=O)[C@H](C)NC(=O)[C@H](CC(C)C)NC(=O)[C@H](CCCNC(=N)N)NC(=O)[C@H](CCC(=O)O)NC(=O)[C@@H](NC(=O)[C@H](C)NC(=O)[C@@H]1CCCCNC(=O)C[C@H](NC(=O)[C@H](CCCNC(=N)N)NC(=O)CC[C@H](NC(=O)CCCCCCCCCCCCCCCCCCC(=O)O)C(=O)O)C(=O)NCC(=O)N[C@@H]([C@@H](C)O)C(=O)N[C@@H](C)C(=O)N[C@@H]([C@@H](C)O)C(=O)N1)[C@@H](C)O` — result for “body weight change”: 8.7% (diet-induced obese rats; subcutaneous, 3 nmol/kg every other day, day 20; reference: day 0).
